Published values from different studies.
Several values in a cell are separate wells, animals, samples, runs or records. ± marks the error that the study gave.

SMILES | target or system | test | system | conditions | how to read | endpoint | result
CCN(CCO)CCCC(C)Nc1ccnc2cc(Cl)ccc12 (centres unmarked) | hiPSC-derived ventricular cardiomyocytes | IKr current |  | 10 µM, 4 min washout |  | recovery | 70.7%
CC(C)=CCC[C@@]1(C)C(CC[C@H]2[C@]3(C)CC[C@H](O)C(C)(C)O[C@H]3CC[C@@]2(C)O)=C(C)CC[C@H]1O | HEK293 MRP7 transfected | cell viability, MTT |  | 72 h |  | IC50 | > 50 µM
COc1ccc2c(Cc3ccccc3F)c3[n+](cc2c1OC)CCc1cc2c(cc1-3)OCO2 | HFL1 | cytotoxicity, CCK-8 |  | 24 h |  | IC50 | 63.4 µM
Cc1noc(C)c1Cn1cc(N2C(=O)CN(Cc3cccc(O)c3)C2=O)cn1 | human blood lymphocytes |  |  | 1300 µg/mL, 3 h, with 5% S9 |  | aberrant cells without gaps | 6%
CCc1cc(C(=O)NC)c2nccc(N3CCc4c(cc(Cn5ccnc5)cc4-c4cn(C)nc4C(F)(F)F)C3=O)c2c1 |  |  | Sprague Dawley rat | oral, 100 mg/kg once daily, 7 days |  | lung weight | 1.23 ± 0.071 g
CC(C)C[C@H](NC(=O)C[C@H](O)[C@H](CC(C)C)NC(=O)[C@H](Cc1c[nH]cn1)NC(=O)CNC(=O)[C@@H](NC(=O)[C@H](C)NC(=O)[C@H](Cc1c[nH]c2ccccc12)NC(=O)[C@H](CCC(N)=O)NC(=O)[C@@H](Cc1ccccc1)NC(=O)COCCOCCNC(=O)CCC(C(=O)O)N1CCN(CC(=O)O)CCN(CC(=O)O)CCN(CC(=O)O)CC1)C(C)C)C(N)=O (some centres unmarked) [lutetium-177 labelled] |  |  | BALB/c nu/nu mice, female, carcass incl. GI tract contents | intravenous, 50 pmol, 24 h |  | tissue uptake | 0.5 ± 0.6 %ID
O=C(O)c1cc(O)c2c(c1)C(=O)c1cccc(O[C@@H]3O[C@H](CO)[C@@H](O)[C@H](O)[C@H]3O)c1C2=O | HepaRG co-cultured with HK-2 | MTT |  | 16.67 µM, 24 h | relative to: untreated control | cell viability | 104 ± 9.29%
[Cl][Ru][Cl].c1cnc2c(c1)ccc1cccnc12.c1cnc2c(c1)ccc1cccnc12.c1cnc2c(c1)ccc1cccnc12 | SK-MEL-28 |  |  | concentration not given, normoxia, added: green light 523 nm |  | photocytotoxicity | inactive
Cn1cc(-c2ccc(-c3cncc(Cl)c3N3CCC4(CCNC4=O)CC3)cc2)cn1 | COLO 205 | microarray, measured: R3HDM1 |  | concentration not given, 2 h | relative to: untreated cells | fold change in expression | -1.46
CCN(CC)CCCC(C)Nc1ccnc2cc(Cl)ccc12 (centres unmarked) | hiPSC-derived ventricular cardiomyocytes | IKr current, perforated patch clamp |  | 5 µM |  | inhibition | 60.5% and 73.4% and 69% and 48.1%
CC(=O)Nc1cccc(-n2c(=O)n(C3CC3)c(=O)c3c(Nc4ccc(I)cc4F)n(C)c(=O)c(C)c32)c1 | SW1417 |  |  | 0.1 µM, 72 h, unit not given | relative to: DMSO | viability | 0.386 and 0.857 and 0.894 and 0.485 and 1.03 and 0.325
COCCOCc1ccc(-c2cc3onc(-c4ccccc4)c3c(=O)n2C)cc1 | COS-7 |  |  | 10 µM, 24 h, 0.1% DMSO, unit not given | relative to: vehicle control | confluence | 0.92 ± 0.02
COc1c(O)c(C)cc2c1C(=O)c1c(ccc(O)c1O)C2=O | HepaRG co-cultured with HK-2 | MTT |  | 133.33 µM, 48 h | relative to: untreated control | cell viability | 38.9 ± 2.58%
CCCCCCCCC(=O)c1cc(O)c(O)c(O)c1 | COS-7 |  |  | 30 µM, 24 h, 0.1% DMSO, unit not given | relative to: vehicle control | apoptotic cells | 1.44 ± 0.42
COc1c(O[C@@H]2O[C@H](CO)[C@@H](O)[C@H](O)[C@H]2O)c(C)cc2c1C(=O)c1c(O)cccc1C2=O | HepaRG co-cultured with HK-2 | MTT |  | 133.33 µM, 48 h | relative to: untreated control | cell viability | 48 ± 2.45%
N#Cc1ccc(O[C@H]2CC[C@H](NC(=O)c3ccc(N4CCC(CN5CCN(c6cc7c(cc6F)C(=O)N(C6CCC(=O)NC6=O)C7=O)CC5)CC4)nn3)CC2)cc1Cl (some centres unmarked) | LNCaP shLuc | cytotoxicity |  | 6 days |  | IC90 | 1.22 µM
CC1CS(=O)(=O)CCN1/N=C/c1ccc([N+](=O)[O-])o1 (centres unmarked) | PMA-differentiated THP-1 macrophages |  |  | 200 µM, 24 h |  | viability | 76.1 ± 18.4%
O=C(O[C@@H]1COC(=O)c2cc(O)c(O)c(O)c2-c2c(cc(O)c(O)c2O)C(=O)O[C@H]1[C@@H]1OC(=O)c2cc(O)c(O)c(O)c2-c2c(O)c(O)c(O)c3c2C(=O)O[C@H]1[C@@H]3O)c1cc(O)c(O)c(O)c1 | human gingival fibroblasts | cytotoxicity |  | 48 h |  | IC50 | > 100 mg/L
CC(=O)Nc1ccc(NC(=S)NC(=O)c2ccc(C(C)(C)C)cc2)cc1 | OCI-Ly1 |  |  | 0.5 µM, 120 h |  | viability | 54.4%
O=C(O)c1cc(O)c2c(c1)C(=O)c1cccc(O)c1C2=O | HepaRG co-cultured with HK-2 | MTT |  | 133.33 µM, 24 h | relative to: untreated control | cell viability | 64.5 ± 8.54%
COc1cccc(-c2n[nH]c(SCc3ccccn3)n2)c1OC | CHO-WBL |  |  | 300 µg/mL, 3 h, without S9 |  | micronuclei per binucleated cell | 0.013
COc1cccc2c1C(=O)c1c(O)c3c(c(O)c1C2=O)C[C@@](O)(C(=O)CO)C[C@@H]3O[C@H]1C[C@H](N)[C@H](O)[C@H](C)O1 | THLE-2 transduced with P450 mix | metabolism-induced cytotoxicity |  | 48 h, 3D Matrigel spots |  | IC50 | 4.4 ± 0.5 µM

SMILES | target or system | test | system | conditions | how to read | endpoint | result
CCOC(=O)Nc1nc2ccc(NCc3ccc(OC(F)(F)F)cc3)cc2[nH]1 | sample A patient iPSC-derived NPCs | MTS |  | 10 µM, 24 h | relative to: vehicle | viability | 101 ± 1.14%
COc1cc2ncnc(Nc3ccc(Oc4ccccc4)c(C)c3C)c2cc1OC.Cl | COLO 205 (BRAF V600E) | resazurin |  | 1 µM, 72 h, unit not given, added: trametinib 1 µM | relative to: DMSO | viability | 0.929 and 0.722
Cn1c(=O)c(F)c(Nc2ccc(I)cc2F)c2c(=O)n(C[C@@H](O)CO)cnc21 | A-431 | WST-8 |  | 1 µM, 25 h, added: IFN-γ |  | viability | 102%
Cc1cc(O)c2c(c1)C(=O)c1cccc(O)c1C2=O | HepaRG co-cultured with HK-2 | MTT |  | 266.67 µM, 24 h | relative to: untreated control | cell viability | 98.5 ± 9.31%
COc1cccc(-c2ccc(NC(=O)C3=C(C(=O)O)CCC3)c(F)c2)c1 | COS-7 |  |  | 3 µM, 24 h, 0.1% DMSO, unit not given | relative to: vehicle control | confluence | 0.92 ± 0.04
COC[C@@H](CC(C)C)NC(=O)c1ccc(C)c(C)c1 | primary human lymphocytes |  |  | 225 µg/mL, 4 (unit not given), with S9 |  | mean mitotic index | 11.7
COc1c(O)c(C)cc2c1C(=O)c1c(O)cccc1C2=O | HepaRG co-cultured with HK-2 | MTT |  | 66.67 µM, 24 h | relative to: untreated control | cell viability | 86.8 ± 16.6%
c1cc(-c2cc(N3CCNCC3)c3c4c(sc3n2)CCCC4)ccn1 | bovine primary retinal endothelial | Transwell |  | 1 µM, added: VEGF, RITC-dextran 70 kDa |  | VEGF-induced permeability | no effect
CC(C)(c1ccc(O)cc1)c1ccc(O)cc1 | HepG2 spheroids | flow cytometry, measured: γH2AX |  | 24 h |  | lowest DNA double-strand break concentration | 40 µM
CC(=O)Nc1cccc(-n2c(=O)n(C3CC3)c(=O)c3c(Nc4ccc(I)cc4F)n(C)c(=O)c(C)c32)c1 | A-431 | WST-8 |  | 1 µM, 25 h, added: IFN-γ |  | viability | 117%
CCC(=O)NS(=O)(=O)c1ccc(-c2c(-c3ccccc3)noc2C)cc1 | COS-7 |  |  | 100 µM, 24 h, 0.1% DMSO, unit not given | relative to: control | confluence | 0.91 ± 0.04
Cc1cc(Cl)cc2sc(N(CCCn3ccnc3)C(=O)C3CC3)nc12 | human cells |  |  |  |  | CC50 | 46.4 µM
Cc1cc(C)c(CNC(=O)c2cc(Cl)c3c(c2C)O[C@@](C)([C@H]2CC[C@H](N(C)C)CC2)O3)c(=O)[nH]1 | Caco-2 |  |  | 10 µM |  | Papp A to B | 3.98 ± 0.21 nm/s
COc1cc2c(c(OC)c1OC)C(=O)c1c(cc(C)c(O)c1OC)C2=O | HepaRG co-cultured with HK-2 | MTT |  | 16.67 µM, 24 h | relative to: untreated control | cell viability | 108 ± 19%
CC(C)n1c(/C=C/C(O)CC(O)CC(=O)O)c(-c2ccc(F)cc2)c2ccccc21 (centres unmarked) | COS-7 |  |  | 10 µM, 24 h, 0.1% DMSO, unit not given | relative to: vehicle control | confluence | 0.8 ± 0.09
Nc1nc(=S)c2[nH]cnc2[nH]1 | OCI-Ly1 |  |  | 0.1 µM, 120 h |  | viability | 186%
COC(=O)c1cn(C)c2ccc(-c3cccnc3)cc12 | COS-7 |  |  | 10 µM, 24 h, 0.1% DMSO, unit not given | relative to: vehicle control | confluence | 0.92 ± 0.05
CC(C)(C)NC(=O)C[C@H](NC(=O)C(=O)c1c[nH]c2ccccc12)C(=O)NCc1cccc(B(O)O)c1 | human PBMCs | cytotoxicity |  | 72 h, 0.5% DMSO |  | EC50 | > 50 µM
CCN1CCN(c2cc(N3CCN(CC)CC3)nc(NCCNc3ccnc4cc(Cl)ccc34)n2)CC1 | COS-7 |  |  | 20 µM, 24 h, 0.1% DMSO, unit not given | relative to: vehicle control | necrotic cells | 1.3 ± 0.31
Cc1cc(C(=O)NC(C)(C)COc2cccc3c2C(N)=NS(=O)(=O)N3)cc(C)n1 | human peripheral blood lymphocytes | CBPI, concurrent micronucleus test |  | 100 µg/mL, 24 h | relative to: vehicle control | cytotoxicity | 2%
CC[C@H](C)C(=O)O[C@H]1C[C@H](O)C=C2C=C[C@H](C)[C@H](CC[C@@H](O)C[C@@H](O)CC(=O)O)[C@H]21 | COS-7 |  |  | 10 µM, 24 h, 0.1% DMSO, unit not given | relative to: vehicle control | confluence | 1 ± 0.03
COc1cc2ncnc(Nc3ccc(Oc4ccccc4)cc3C)c2cc1OC.O=C(O)C(F)(F)F | COLO 205 (BRAF V600E) | resazurin |  | 0.1 µM, 72 h, added: trametinib 0 nM |  | viability | 0.871 fraction of control

Excerpt of the above:
SMILES | target or system | test | system | conditions | how to read | endpoint | result
COCCOCc1ccc(-c2cc3onc(-c4ccccc4)c3c(=O)n2C)cc1 | COS-7 |  |  | 10 µM, 24 h, 0.1% DMSO, unit not given | relative to: vehicle control | confluence | 0.92 ± 0.02
COc1c(O)c(C)cc2c1C(=O)c1c(ccc(O)c1O)C2=O | HepaRG co-cultured with HK-2 | MTT |  | 133.33 µM, 48 h | relative to: untreated control | cell viability | 38.9 ± 2.58%
CCCCCCCCC(=O)c1cc(O)c(O)c(O)c1 | COS-7 |  |  | 30 µM, 24 h, 0.1% DMSO, unit not given | relative to: vehicle control | apoptotic cells | 1.44 ± 0.42
